Literature values that unrelated publications cite.
Protocols differ between the studies behind these lines. ± gives the spread as reported. Converted amounts (≈) assume the structure as drawn.
UniProt Q9P2K8, sequence (whole entry, unmodified, looked up): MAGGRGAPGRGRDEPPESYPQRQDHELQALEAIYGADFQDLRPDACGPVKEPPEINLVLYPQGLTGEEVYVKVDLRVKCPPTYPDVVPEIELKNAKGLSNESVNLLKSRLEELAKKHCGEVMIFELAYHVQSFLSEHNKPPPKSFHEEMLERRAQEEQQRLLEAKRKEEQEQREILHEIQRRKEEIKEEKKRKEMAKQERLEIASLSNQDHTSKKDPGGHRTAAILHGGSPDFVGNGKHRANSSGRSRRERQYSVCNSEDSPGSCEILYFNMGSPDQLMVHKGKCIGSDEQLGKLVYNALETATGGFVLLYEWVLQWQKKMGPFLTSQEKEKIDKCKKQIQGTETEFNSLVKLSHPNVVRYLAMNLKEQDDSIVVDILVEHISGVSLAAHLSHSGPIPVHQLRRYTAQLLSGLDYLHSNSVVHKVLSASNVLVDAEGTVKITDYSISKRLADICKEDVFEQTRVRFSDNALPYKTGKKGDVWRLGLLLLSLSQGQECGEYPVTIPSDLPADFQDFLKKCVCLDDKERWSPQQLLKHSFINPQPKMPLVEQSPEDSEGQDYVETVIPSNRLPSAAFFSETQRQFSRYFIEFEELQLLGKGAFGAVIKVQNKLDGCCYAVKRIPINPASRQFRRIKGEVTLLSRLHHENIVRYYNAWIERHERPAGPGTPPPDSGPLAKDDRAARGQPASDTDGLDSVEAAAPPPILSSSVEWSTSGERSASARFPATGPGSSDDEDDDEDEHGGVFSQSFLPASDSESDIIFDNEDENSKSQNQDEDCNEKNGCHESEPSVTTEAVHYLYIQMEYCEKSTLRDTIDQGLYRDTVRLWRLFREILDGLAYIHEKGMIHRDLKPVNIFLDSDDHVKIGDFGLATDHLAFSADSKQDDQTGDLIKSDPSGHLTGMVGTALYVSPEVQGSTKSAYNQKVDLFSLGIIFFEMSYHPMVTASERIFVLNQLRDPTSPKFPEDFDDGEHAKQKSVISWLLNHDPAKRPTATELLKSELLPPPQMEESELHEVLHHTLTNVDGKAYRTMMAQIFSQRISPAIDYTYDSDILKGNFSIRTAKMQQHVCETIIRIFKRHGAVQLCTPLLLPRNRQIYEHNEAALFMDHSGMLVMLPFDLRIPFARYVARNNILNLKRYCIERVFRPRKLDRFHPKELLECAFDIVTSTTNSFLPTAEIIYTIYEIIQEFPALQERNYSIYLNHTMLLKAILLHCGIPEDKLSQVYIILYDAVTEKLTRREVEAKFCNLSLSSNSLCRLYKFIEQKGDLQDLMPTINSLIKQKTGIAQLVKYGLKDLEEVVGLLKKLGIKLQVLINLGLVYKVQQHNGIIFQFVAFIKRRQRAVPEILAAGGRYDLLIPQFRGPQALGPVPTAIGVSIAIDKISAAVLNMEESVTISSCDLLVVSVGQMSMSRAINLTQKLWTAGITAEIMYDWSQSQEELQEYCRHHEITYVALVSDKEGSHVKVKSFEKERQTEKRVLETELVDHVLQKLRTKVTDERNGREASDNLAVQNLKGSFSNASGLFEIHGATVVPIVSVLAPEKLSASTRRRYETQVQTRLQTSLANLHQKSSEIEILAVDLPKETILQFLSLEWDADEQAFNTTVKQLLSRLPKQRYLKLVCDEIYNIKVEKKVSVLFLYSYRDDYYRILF

For `CC(=O)O[C@H]1C(=O)[C@@]2(C)[C@H]([C@H](OC(=O)c3ccccc3)[C@]3(O)C[C@H](OC(=O)[C@H](O)[C@@H](NC(=O)c4ccccc4)c4ccccc4)C(C)=C1C3(C)C)[C@]1(OC(C)=O)CO[C@@H]1C[C@@H]2O`, “grade 4 peripheral neuropathy incidence” read 0% (advanced esophageal cancer patients; 80 mg/m2 weekly, monotherapy).
`Cc1ccc([C@@H]2O[C@H](CO)[C@@H](O)[C@H](O)[C@H]2O)cc1Cc1ccc(-c2ccc(F)cc2)s1` gave a tmax of 1 h (human, preserved kidney function; 100 mg, steady state, median).
The free Cmax of `CCOC(=O)C1=C(C)NC(C)=C(C(=O)OC)C1c1cccc([N+](=O)[O-])c1` (stereo not drawn) is reported as 0.302 nM (human).
The crossover pressure of `CCOc1ccc(Cc2cc([C@@H]3O[C@H](CO)[C@@H](O)[C@H](O)[C@H]3O)ccc2Cl)cc1.C[C@H](O)CO.O` is reported as roughly 17 MPa (solubility in supercritical CO2).
The free Cmax of `N[C@@H](CC(=O)N1CCn2c(nnc2C(F)(F)F)C1)Cc1cc(F)c(F)cc1F` is reported as 442 nM (human).
`Cc1cn([C@H]2C[C@H](N=[N+]=[N-])[C@@H](CO)O2)c(=O)[nH]c1=O` has an oral bioavailability of 48% (monkey; 200 mg/kg).
With `CC(=O)Oc1ccccc1C(=O)O` the solubility was less than 1000 µg/mL (water).
`Oc1ccc(C(c2ccc(O)cc2)(C(F)(F)F)C(F)(F)F)cc1` gave an AUC of 4.38 µM·h (refers to: free (unconjugated) compound; Sprague-Dawley rat, female; oral gavage, 110 mg/kg).
Under “incidence of nausea and vomiting”, `Cn1c(=O)c2c(ncn2CC(=O)Nc2ccc(-c3ccccc3)nn2)n(C)c1=O` is recorded as 25 to 30% (human, advanced cancer; dose not given, phase I trial; relative to: subjects).
`CC(C)[C@H]1CC[C@H](C(=O)N[C@H](Cc2ccccc2)C(=O)O)CC1` gave an unbound Cmax of 230 nM (plasma; concentration not given).
`CNC(=O)c1cc(Oc2ccc(NC(=O)Nc3ccc(Cl)c(C(F)(F)F)c3)c(F)c2)ccn1` gave a solubility of 15.6 µg/mL (≈ 32.3 µM) (FaSSIF; literature value).
`CNC(C)C1CCC(N)C(OC2C(N)CC(N)C(OC3OCC(C)(O)C(NC)C3O)C2O)O1` (stereo not drawn) gave an MIC of greater than 8 µg/mL (Klebsiella pneumoniae; clinical isolate RKI-No_19/16).
The diarrhoea incidence of `C[C@@H](Oc1cc(-c2cnn(C3CCNCC3)c2)cnc1N)c1c(Cl)ccc(F)c1Cl` is reported as 49% (human; concentration not given, clinical).
The free Cmax of `O=C1NCCN1CCN1CCC(c2cn(-c3ccc(F)cc3)c3ccc(Cl)cc23)CC1` is reported as 0.787 nM (plasma).
`O=c1[nH]cnc2c1ncn2[C@H]1CC[C@@H](CO)O1` gave an oral bioavailability of 15% (mouse).
For `FC(F)(F)c1ccc(CNc2ccc(Cc3c[nH]c4ncc(Cl)cc34)cn2)cn1`, the AUC(0-24 h) was 41900 ng·h/mL (patients, plasma; oral, 400 mg once daily, day 15, mean).
`Cc1nsc(-c2nnc3n2CCN(C(=O)c2ccc(F)cc2)[C@@H]3C)n1` has a Vz/F of 189 L (human; oral, mean reported).
`Cc1cn([C@H]2C=C[C@@H](CO)O2)c(=O)[nH]c1=O` has an oral bioavailability of 77% (monkey; 30 mg/kg).
The crossover pressure of `O=C(NC[C@H]1CN(c2ccc(N3CCOCC3=O)cc2)C(=O)O1)c1ccc(Cl)s1` is reported as 210 to 240 bar (supercritical CO2).
With `Nc1cc(C(F)(F)F)c(-c2nc(N3CCOCC3)nc(N3CCOCC3)n2)cn1` the remaining activity was 100% (eIF-2-alpha kinase GCN2 (EIF2AK4, Homo sapiens, UniProt Q9P2K8, S808G); enzyme activity; 10 µM; relative to: untreated).
With `CC1=NN(c2ccccc2)C(=O)C1` the solubility was less than 1000 µg/mL (water).
For `CC(C)c1c(C(=O)Nc2ccccc2)c(-c2ccccc2)c(-c2ccc(F)cc2)n1CC[C@@H]1C[C@@H](O)CC(=O)O1`, plasma stability read “unstable” (plasma; acid form back-conversion).
`CNCc1cc(-c2ccccc2F)n(S(=O)(=O)c2cccnc2)c1` gave a Tmax of 1 h (human; 20 mg, single dose, fasted).
With `CC(C)c1nc(N(C)S(C)(=O)=O)nc(-c2ccc(F)cc2)c1/C=C/[C@@H](O)C[C@@H](O)CC(=O)O` the CLint additional was 17 µL/min/mg protein (human liver microsomes; Simcyp input parameter).
For `COc1ccc(C2CNC(=O)C2)cc1OC1CCCC1` (stereo not drawn), the solubility was less than 1000 µg/mL (water).
For `CCOc1ccccc1OCCN[C@H](C)Cc1ccc(OC)c(S(N)(=O)=O)c1`, the crossover pressure was 215 to 230 bar (supercritical CO2).
The MIC of `CC1(C)S[C@@H]2[C@H](NC(=O)[C@H](N)c3ccccc3)C(=O)N2[C@H]1C(=O)O` is reported as greater than 16 µg/mL (Klebsiella pneumoniae; clinical isolate RKI-No_80/15).
`Cc1nc(Nc2ncc(C(=O)Nc3c(C)cccc3Cl)s2)cc(N2CCN(CCO)CC2)n1` has a free Cmax of 7.05 nM (human).
`COCCc1ccc(OCC(O)CNC(C)C)cc1` (stereo not drawn) has a Cmax, mean of 105 ng/mL (human, fasted; 200 mg, single dose).
`CN(C)C(=O)c1cc2cnc(Nc3ccc(N4CCNCC4)cn3)nc2n1C1CCCC1` — result for “adverse event incidence”: 63.2% (refers to: nausea; advanced solid tumour or lymphoma patients; dose not given, continuous dosing; relative to: patients).
With `Cn1c(Cn2ccc(C(F)(F)F)c(Oc3cc(Cl)cc(C#N)c3)c2=O)n[nH]c1=O` the unbound Cmax was 700 nM (human; 100 mg, anticipated).
`C[C@H]1COCCN1c1nc(-c2cnc(N)cc2C(F)F)nc(N2CCOCC2)n1` has a GI50 of 354 nM (Hs-578T).
With `Nc1nc(Cl)nc2c1ncn2[C@H]1C[C@H](O)[C@@H](CO)O1` the solubility was less than 1000 µg/mL (water).
`CC(C)(CO)c1cc2cc(NC(=O)C3(c4ccc5c(c4)OC(F)(F)O5)CC3)c(F)cc2n1C[C@@H](O)CO` has a fraction unbound of 0.009 (human reference individuals, plasma).
The diarrhoea incidence of `CC(=O)[C@]1(O)Cc2c(O)c3c(c(O)c2[C@@H](O[C@H]2C[C@H](N)[C@H](O)[C@H](C)O2)C1)C(=O)c1ccccc1C3=O` is reported as 73% (human; concentration not given, clinical).
With `OCc1cc(C(O)CNCCCCCCOCCCCc2ccccc2)ccc1O` (stereo not drawn) the Clast was 0.1 nM (human, plasma; inhaled, dose not given).
For `CS(=O)(=O)c1ccc(C(=O)Nc2ccc(Cl)c(-c3ccccn3)c2)c(Cl)c1`, the solubility was less than 1000 µg/mL (water).
`CC(C)c1nc(N(C)S(C)(=O)=O)nc(-c2ccc(F)cc2)c1/C=C/[C@@H](O)C[C@@H](O)CC(=O)O` — result for “passive diffusion clearance”: 0.0025 mL/min/10⁶ hepatocytes (hepatocytes; liver).
The Vd of `CC(C(=O)O)c1ccc(-c2ccccc2)c(F)c1` (stereo not drawn) is reported as 6 to 8 L (human).
With `CC#CC(=O)N1CC[C@@H](n2c(=O)n(-c3ccc(Oc4ccccc4)cc3)c3c(N)ncnc32)C1` the AUC(0-last) was 8500 ± 1700 ng·h/mL (human; 480 mg once daily).
With `O=C(c1cc(Cc2n[nH]c(=O)c3ccccc23)ccc1F)N1CCN(C(=O)C2CC2)CC1` the Cmin was 610 ng/mL (human; oral tablet, 200 mg twice daily, multiple dose).
The solubility of `CCc1cc2c(cc1N1CCC(N3CCOCC3)CC1)C(C)(C)c1[nH]c3cc(C#N)ccc3c1C2=O` is reported as 23 µg/mL (≈ 47.7 µM) (FaSSIF; literature value).
The Cmax of `C#C[C@]1(O)CC[C@H]2[C@@H]3CCc4cc(O)ccc4[C@H]3CC[C@@]21C` is reported as 0.4 nM (plasma; concentration not given, total, steady state).
`Nc1cccc2c1C(=O)N(C1CCC(=O)NC1=O)C2=O` (stereo not drawn) — result for “deep vein thrombosis incidence”: 1% (relapsed refractory multiple myeloma patients; dose not given, all grades).
For `C[Si](C)(C)O[Si](C)(C)O[Si](C)(C)O[Si](C)(C)C`, the log KAW was 3.04 (vapour pressure over solubility; 25 °C).
`N#Cc1ccc(C(c2ccc(C#N)cc2)n2cncn2)cc1` has a concentration ratio of roughly 1.5 fold (rat, orthotopic C6 glioma, brain; relative to: tumoral over nontumoral region).
`Cc1ccc(-c2cc(C(F)(F)F)nn2-c2ccc(S(N)(=O)=O)cc2)cc1` gave a Cmax of 1850 nM (plasma; concentration not given, total, steady state).
`[Ru+2].c1ccc(-c2ccnc3c2ccc2c(-c4ccccc4)ccnc23)cc1.c1ccc(-c2ccnc3c2ccc2c(-c4ccccc4)ccnc23)cc1.c1ccc(-c2ccnc3c2ccc2c(-c4ccccc4)ccnc23)cc1` — result for “singlet oxygen quantum yield”: 0.97 (CD3OD).
With `C#C[C@]1(O)CC[C@H]2[C@@H]3CCC4=CC(=NO)CC[C@@H]4[C@H]3CC[C@@]21CC` (mixture of isomers) the Cmax, mean was 1.98 ng/mL (human, fasted; 0.25 mg norgestimate, single dose, reference formulation).
For `COc1cc(N2CCC(N3CCN(C)CC3)CC2)ccc1Nc1ncc(Cl)c(Nc2ccccc2P(C)(C)=O)n1`, “unchanged compound excreted” read 86% (human, urine; oral, 180 mg; relative to: radioactivity).
With `CCCS(=O)(=O)Nc1ccc(F)c(C(=O)c2c[nH]c3ncc(-c4ccc(Cl)cc4)cc23)c1F` the Vd was 0.211 L/kg (rat; intravenous, single dose).

Excerpt of the above:
`Oc1ccc(C(c2ccc(O)cc2)(C(F)(F)F)C(F)(F)F)cc1` gave an AUC of 4.38 µM·h (refers to: free (unconjugated) compound; Sprague-Dawley rat, female; oral gavage, 110 mg/kg).
With `CCCS(=O)(=O)Nc1ccc(F)c(C(=O)c2c[nH]c3ncc(-c4ccc(Cl)cc4)cc23)c1F` the Vd was 0.211 L/kg (rat; intravenous, single dose).
With `O=C(c1cc(Cc2n[nH]c(=O)c3ccccc23)ccc1F)N1CCN(C(=O)C2CC2)CC1` the Cmin was 610 ng/mL (human; oral tablet, 200 mg twice daily, multiple dose).
`COCCc1ccc(OCC(O)CNC(C)C)cc1` (stereo not drawn) has a Cmax, mean of 105 ng/mL (human, fasted; 200 mg, single dose).
For `CCOc1ccccc1OCCN[C@H](C)Cc1ccc(OC)c(S(N)(=O)=O)c1`, the crossover pressure was 215 to 230 bar (supercritical CO2).
The diarrhoea incidence of `C[C@@H](Oc1cc(-c2cnn(C3CCNCC3)c2)cnc1N)c1c(Cl)ccc(F)c1Cl` is reported as 49% (human; concentration not given, clinical).
`CC(C)c1nc(N(C)S(C)(=O)=O)nc(-c2ccc(F)cc2)c1/C=C/[C@@H](O)C[C@@H](O)CC(=O)O` — result for “passive diffusion clearance”: 0.0025 mL/min/10⁶ hepatocytes (hepatocytes; liver).
The solubility of `CCc1cc2c(cc1N1CCC(N3CCOCC3)CC1)C(C)(C)c1[nH]c3cc(C#N)ccc3c1C2=O` is reported as 23 µg/mL (≈ 47.7 µM) (FaSSIF; literature value).
